Measured values collected from several papers.
Every numbered part comes from another study and shows a few of its results, in no order.

Study 1
Target: Sal-like protein 4, full length isoform B (SALL4, Homo sapiens, UniProt Q9UJQ4-2, residues 1-616)
Technique: universal PBM
Form: double-stranded DNA, one strand shown
Sample: in vitro
Concentration: not given
Notes: 8-mer, flanks averaged, mean of replicates
Direction: higher = stronger binding
Endpoint: E-score
TACAAGTA: 0.234
AACCGAAT: 0.16
TATCGCAA: 0.0635

Study 2
Target: RNA binding protein fox-1 homolog 2, RRM domain, GST-SBP tag (RBFOX2, Homo sapiens, UniProt O43251-10, residues 100-194)
Technique: RNA Bind-n-Seq
Form: RNA
Sample: in vitro
Concentration: 365 nM
Notes: natural RNA segment, single round, ends assumed
Reference: no-protein control
Direction: higher = stronger binding
Endpoint: RBNS enrichment (R)
GGGAGUUCUACAGUCCGACGAUCGCUAUCUUAUUUUUUUUCUUAUAGAAUUAAUCACAGGUCUUCUUAUCAUUGUGAAAACUCAUGUUGUAUUACUUUUUAUUAAUUGUAAUUUGGGAUACAUAUAAGUUAAUUGGAAUUCUCGGGUGCCAA: 0.66
GGGAGUUCUACAGUCCGACGAUCAAUACGAGGAACUUCUUCAGGUGAUAAAGAAAUUUCGGGAUGAAGAGCUUGAGCACCAUGACAUAGGCCUCGACCAUGAUGCAGAAUUGGCUCCAGCCUAUGCCGUCCUGUGGAAUUCUCGGGUGCCAA: 0.607
GGGAGUUCUACAGUCCGACGAUCAAAACCAAAACCAAACCAAAGUUCUUUGUUUUGCCUGGUUACGACAUUCAGUUUAUCUGUGUAAAUAUUAUGAUUUUUUUUGUUUUGUUUUCUCUUUAGAAUUUUGUUAAUGGAAUUCUCGGGUGCCAA: 1.04

Study 3
Target: Histone acetyltransferase KAT6A, winged helix 2, GST fusion (KAT6A, Homo sapiens, UniProt Q92794, residues 85-181)
Technique: protein binding microarray
Form: double-stranded DNA, one strand shown
Sample: in vitro
Concentration: not given
Notes: 8-mer, flanks averaged, mean of 2 arrays, mostly near background
Reference: not given
Direction: higher = stronger binding
Endpoint: E-score
Construct (chain): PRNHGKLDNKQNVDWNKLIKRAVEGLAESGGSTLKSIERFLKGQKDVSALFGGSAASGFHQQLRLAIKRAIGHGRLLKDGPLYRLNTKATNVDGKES
ATCGCCGC: 0.108
ATTGGATA: -0.137
ACATTATG: -0.066
ACCTTACT: 0.0428

Further values, each from its own experiment
PhoQ, residues 284 288 289 292 302 303 GTAMQF — fold induction (PhoP, residues 12 14 15 18 19 TTLRV (Escherichia coli, UniProt P23836); Sort-seq, refers to: YFP reporter; E. coli; PhoQ-PhoP variant library, added: 10 µM Mg2+; reference: high Mg2+ state, higher = stronger signaling): 6.52

Some of these lines once more (study 3):
ATCGCCGC: 0.108
